{"data": "Measured values from different studies", "note": "Numbered parts are unrelated; each lists some results of a single study."}
{"data": "Set 1", "target": "RING finger protein unkempt homolog, zinc fingers 1-6, GST-SBP tag (UNK, Homo sapiens, UniProt Q9C0B0, residues 30-357)", "technique": "RNA Bind-n-Seq", "form": "RNA", "medium": "in vitro", "tested at": "not given", "notes": "RNA with constant flanks, human-mouse chimeric sites, ends assumed", "baseline": "input RNA pool", "reading": "higher = stronger binding", "constant ends, left off below": "GGGAGUUCUACAGUCCGACGAUC … CAACAGAGGAUUGAGCAUCA", "Target sequence (chain)": "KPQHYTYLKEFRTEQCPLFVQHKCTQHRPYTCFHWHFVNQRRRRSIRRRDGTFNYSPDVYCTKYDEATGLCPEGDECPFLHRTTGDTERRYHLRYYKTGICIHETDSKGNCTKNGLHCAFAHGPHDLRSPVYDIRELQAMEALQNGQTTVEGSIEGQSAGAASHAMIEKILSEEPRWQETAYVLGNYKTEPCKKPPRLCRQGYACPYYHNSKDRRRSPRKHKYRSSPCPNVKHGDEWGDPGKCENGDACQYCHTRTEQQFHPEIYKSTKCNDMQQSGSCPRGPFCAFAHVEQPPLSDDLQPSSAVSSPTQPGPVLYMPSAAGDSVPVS"}
{"Sequence": "GAAUCCUACUCAGGCGGAUUUUGCAACACCAAGCUCACAGCAGCAGCAUCUUAGUCACAGUUAGGUAGUUUUGGGGCAAUAUUGCCAGGGUUUUAUUCACAUGCAGGUUUGGAAAAUGUA", "bound/input enrichment [ratio]": 11.6}
{"Sequence": "CAGGGCAUCAUCUCUCGUGCUGUUAGACACCUGUUCAAGAGUAUUGAUGAGAAAAAGACCUCAGCGAUUAAAAAUGGGCUGCCCCCUCCUGAAUUCAAAGUGAAUGCCCAGUUCCUAGAG", "bound/input enrichment [ratio]": 0.33}
{"Sequence": "AAGGUGAUGACUAUGUUUGUCCAACGACAGGUAUUUUCGGAGAGCAAGGAUGAGAUUGCGUUAGUCCUCUAUGGCACAGAUGGCACUGAUAAUGCCCUUGCUGGCAAGGACCAGUAUCAG", "bound/input enrichment [ratio]": 0.108}
{"Sequence": "AGUACUGACUCAGGCGGAUUUUGCAACACCAAGCUCACAGCAGCAGCAUCUUAGUCACAGUAGGGUAGUUUUGGGGCAAUAUUGCCAGGGUUUUAUUCACAUGCAGGUUUGGAAAAUGUA", "bound/input enrichment [ratio]": 8.3}
{"Sequence": "GAGUCGAGCAAACUUGAAACUACAGAAUAUCUUGCAGAGCUUCGGUGCACUUGCUUGGCGAUAGCAUUGGGGUUUUAUAGGUUCUGGAAGGAGAACUGACGAUGAUGCUGCCGCUGCUGC", "bound/input enrichment [ratio]": 0.0945}
{"Sequence": "GGGACUGAUUCAUCCCAAGGACAGGCCGCCCAGUCUGAUGCCUGGACUGACGACAGUAUGGAAGGGCCUAGUCAAAAUGUUGAAGCUGAGUCAAUUCAGGAUGCCAUGAGUAUGGAAGAG", "bound/input enrichment [ratio]": 0.25}
{"Sequence": "AGUGUGCAGGAAUUCAUGACCUUUACAAGUCAACUGAUUGUGGAACGCUCGGGGAAAGGCAGCAGAGCUUCUGUCAAAGAACAAGAGUAUCUUUGCCACGUCUACGUCCGGAGCGACAGU", "bound/input enrichment [ratio]": 0.114}
{"Sequence": "GCCACCAGAUCCCAGAAACAUGACUCUUGCUGCCUACAAAGAGAAGAUGAAGGAGCUCCCGCUGGUGUCUCUGUUCUGCUCCUGCUUCCUGGCCGAUCCCCUGAAUAAGUCGUCCUACAA", "bound/input enrichment [ratio]": 0.32}
{"data": "Set 2", "target": "Interferon regulatory factor 7, full length, phosphomimetic (IRF7, Homo sapiens, UniProt Q92985, residues 1-503, S101K/S471D/S472D/S475D/S476D/S477D/S483D/S484D/S487D)", "technique": "protein-binding microarray", "form": "double-stranded DNA, one strand shown", "medium": "in vitro", "tested at": "250 nM", "notes": "60-bp whole probe", "with": "salmon DNA 0.4 mg/ml", "baseline": "random background probes", "reading": "higher = stronger binding", "constant ends, left off below": "GCCTAGCAC … GTCTTGATTCGCTTGACGCTGCTG", "sequence of UniProt Q92985 (whole entry, unmodified, looked up)": "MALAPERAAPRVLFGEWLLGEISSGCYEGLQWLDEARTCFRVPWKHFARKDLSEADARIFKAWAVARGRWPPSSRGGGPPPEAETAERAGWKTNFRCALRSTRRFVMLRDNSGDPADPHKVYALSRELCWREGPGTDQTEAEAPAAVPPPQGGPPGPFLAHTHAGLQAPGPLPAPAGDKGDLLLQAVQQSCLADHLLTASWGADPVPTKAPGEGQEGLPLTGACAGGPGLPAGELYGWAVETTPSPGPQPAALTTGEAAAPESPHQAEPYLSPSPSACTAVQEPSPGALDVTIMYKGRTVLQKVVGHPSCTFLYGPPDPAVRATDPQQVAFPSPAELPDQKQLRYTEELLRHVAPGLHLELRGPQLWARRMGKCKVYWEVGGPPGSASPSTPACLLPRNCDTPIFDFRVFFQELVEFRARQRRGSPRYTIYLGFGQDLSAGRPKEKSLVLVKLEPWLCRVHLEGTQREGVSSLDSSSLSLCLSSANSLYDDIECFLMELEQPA"}
{"Sequence": "CTTTATTTAAGCTCCTATCTTGTGCTA", "log fluorescence": "0.67 z-score"}
{"Sequence": "TCACATCTGCAAGATCCAACTGTGCTA", "log fluorescence": "0.0329 z-score"}
{"Sequence": "TCACCTTTCACTTTAACACTGTGCTAG", "log fluorescence": "1.59 z-score"}
{"Sequence": "TGAAATTTTAGTAACACAGAGTGCTAG", "log fluorescence": "-0.224 z-score"}
{"Sequence": "TCAGGACTGGGGTTTCGGTTAGTGCTA", "log fluorescence": "4.94 z-score"}
{"Sequence": "TTAGGTTCCAGTTTCGATTAGTGCTAG", "log fluorescence": "9.59 z-score"}
{"Sequence": "TTAGATTTCAGCTTCGATTAGTGCTAG", "log fluorescence": "0.394 z-score"}
{"Sequence": "GACGGGTTCGGTATCGGGACGTGCTAG", "log fluorescence": "1.46 z-score"}
{"Sequence": "TTAGGACTTGGTCTCGGTTAGTGCTAG", "log fluorescence": "1.62 z-score"}
{"Sequence": "GTCGATTTCGGGTTTCGAGACGTGCTA", "log fluorescence": "6.02 z-score"}
{"Sequence": "TTAGGACTGGACGATCGGTTAGTGCTA", "log fluorescence": "-0.62 z-score"}
{"Sequence": "AAGACTTTCTTTCAAATGAAGTGCTAG", "log fluorescence": "0.805 z-score"}
{"Sequence": "GACGGACTGGACACCGGGGACGTGCTA", "log fluorescence": "-0.628 z-score"}
{"Sequence": "GACGGTATCGGTATGGGGACGTGCTAG", "log fluorescence": "0.637 z-score"}
{"Sequence": "TTAGGACTGGACACTGGGATAGTGCTA", "log fluorescence": "-0.507 z-score"}
{"Sequence": "GACGGACTGGGGTTTCGGCACGTGCTA", "log fluorescence": "-0.464 z-score"}
{"Sequence": "GACGAACTGGGGTATCGCGACGTGCTA", "log fluorescence": "-0.604 z-score"}
{"data": "Set 3", "target": "Sal-like protein 4, full length isoform B (SALL4, Homo sapiens, UniProt Q9UJQ4-2, residues 1-616)", "technique": "universal PBM", "form": "double-stranded DNA, one strand shown", "medium": "in vitro", "tested at": "not given", "notes": "8-mer, flanks averaged, mean of replicates", "reading": "higher = stronger binding"}
{"Sequence": "GCGCGCCC", "E-score": -0.346}
{"Sequence": "CAGTAAGC", "E-score": -0.0903}
{"Sequence": "CAGATTGA", "E-score": -0.0221}
{"Sequence": "AAGTCATC", "E-score": 0.0796}
{"Sequence": "AAGGGGCT", "E-score": -0.0665}
{"Sequence": "GATTGTCC", "E-score": -0.167}
{"Sequence": "AACCTTAA", "E-score": 0.156}
{"Sequence": "ACGTATCA", "E-score": 0.174}
{"Sequence": "GAGGCGGA", "E-score": -0.147}
{"Sequence": "GGGTACCC", "E-score": -0.293}
{"Sequence": "TACAAGCA", "E-score": 0.121}
{"Sequence": "CAAAATAA", "E-score": 0.308}
{"Sequence": "ACAATCCG", "E-score": -0.0449}
{"Sequence": "TCCAACAA", "E-score": 0.129}
{"Sequence": "AACTTATC", "E-score": 0.207}
{"Sequence": "TGTACGAA", "E-score": 0.224}
{"Sequence": "AGTCATAC", "E-score": 0.14}
{"Sequence": "CGGATCTA", "E-score": -0.0819}
{"Sequence": "ATTCTCTA", "E-score": 0.132}
{"Sequence": "AGGGTTTA", "E-score": 0.0832}
{"Sequence": "GCAGTGCC", "E-score": -0.343}
{"Sequence": "CCAGGCTC", "E-score": -0.214}
{"Sequence": "ACCATAGA", "E-score": 0.0981}
{"Sequence": "CAGGGGCG", "E-score": -0.402}
{"Sequence": "AGCCACCG", "E-score": -0.235}
{"data": "Set 4", "target": "RNA binding protein fox-1 homolog 2, RRM domain, GST-SBP tag (RBFOX2, Homo sapiens, UniProt O43251-10, residues 100-194)", "technique": "RNA Bind-n-Seq", "form": "RNA", "medium": "in vitro", "tested at": "365 nM", "notes": "natural RNA segment, single round, ends assumed", "baseline": "no-protein control", "reading": "higher = stronger binding", "constant ends, left off below": "GGGAGUUCUACAGUCCGACGAUC … UGGAAUUCUCGGGUGCCAA", "Residues (chain)": "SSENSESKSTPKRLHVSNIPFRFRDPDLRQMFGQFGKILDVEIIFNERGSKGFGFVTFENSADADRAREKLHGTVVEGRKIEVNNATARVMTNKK"}
{"Sequence": "CCUCCACAGUGAGGAAGCUGGCAGCGAGCAGGUAGACCUGGAGACUGCACGGCUGCUGAUUGGUCUUCUAUCUCCUGAAGUUUACUCAUGUUCUUAAAACUCCUGGUGAC", "RBNS enrichment (R)": 0.392}
{"Sequence": "GAUAAAAGUCGGGGAUGGAAUGGGGGAAGAGGAAGGGCAGGAAAGCCCUCACCCUUUGCUGCCCUGGGGCCAUGGCCUCACCCCUCUGGAGGGCCAGAGGCAGGAGGUGG", "RBNS enrichment (R)": 0.387}
{"Sequence": "ACAACAGUUCCUGGCCCAAAAAAUCCAUAGAAAGAGGUAACUAGUGGCAGAUUUGGGGCGCCAACCUGAUUUUAUGGAUUUUGAGUUAGAUUCUCUACCCUCUAUCAAUA", "RBNS enrichment (R)": 1.05}
{"Sequence": "AGUAAUUACAGGUUAUAUACAGUAUACUGCUUUAGAGAGAAUUUGUUAAUUUGCUUGGUAUUUUCAUCAGAAUAUUACAUGACCUGGAAAGUUAAGUGGUUUUCAGUUCA", "RBNS enrichment (R)": 0.765}
{"Sequence": "CCAUGUCCUAGCCUGUCUGCAUUUGUUAGUGGUAAUAUUCUUUAUGUAUAAUAAAUUUUUAUACCCAGCCAUUGAUGUACUUUUCCUUGUACUCUCCCUUGUGGGUCCCU", "RBNS enrichment (R)": 0.681}
{"Sequence": "CCUUUCGGGCUCCUUUUUUAGGUGGUGGGAUUGAGUCCCUACUAGCUCGGAAGGCCUUGAGAGGGCUGAUGGGGAAGUCACUGAGGAUGAAUCUGUCAUCUCAGGCAAUA", "RBNS enrichment (R)": 0.653}
{"Sequence": "GGGACUCACUGUCAGAGUUAGCGUGGAUUGCUGCUGCCGGGGCACUACCUCCUGGCUUCUCUCCCUGCUGACGUGGCUCUUGUCCUGGAGCAGAGCAGUGCGUUGUUGGG", "RBNS enrichment (R)": 0.3}
{"Sequence": "ACGAGAACAGUUUGUACAAGUUUUUUUUUUUGAAUAAAACUUUUCCAAUGAAAUGUUAUAGGUGUGUGAAAGCAGAUUAAAGAAAGAGGUUCCCAUAUCAUUCUUUCUAA", "RBNS enrichment (R)": 0.488}
{"note": "Some of these lines once more (set 3):"}
{"Sequence": "AAGTCATC", "E-score": 0.0796}
{"Sequence": "AAGGGGCT", "E-score": -0.0665}
{"Sequence": "GATTGTCC", "E-score": -0.167}
{"Sequence": "AACCTTAA", "E-score": 0.156}
{"Sequence": "ACGTATCA", "E-score": 0.174}
{"Sequence": "GAGGCGGA", "E-score": -0.147}
{"Sequence": "GGGTACCC", "E-score": -0.293}
{"Sequence": "TACAAGCA", "E-score": 0.121}
